Published values gathered from unrelated publications.
Each line is one published result; not all experiments were run side by side. Values joined by “and” are separate records of one study, mostly repeats; a detail may differ. Numbers after ± are the reported error.
rpl-10a: rpl-10a 1-216 (Caenorhabditis elegans, UniProt Q9N4I4)
Chain of UniProt Q9N4I4 (whole entry, looked up): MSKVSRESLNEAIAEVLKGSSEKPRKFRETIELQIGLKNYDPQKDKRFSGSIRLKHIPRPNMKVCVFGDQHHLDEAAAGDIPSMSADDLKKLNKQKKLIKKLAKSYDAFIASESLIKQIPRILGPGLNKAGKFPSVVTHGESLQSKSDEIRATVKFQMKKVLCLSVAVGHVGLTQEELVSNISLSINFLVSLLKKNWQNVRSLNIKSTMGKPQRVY
leuO: leuO fragment (Escherichia coli)
fur full length assumed: fur full length assumed (Acidithiobacillus ferrooxidans, UniProt B7J425)
B1: enzyme (Bacillus pumilus, UniProt A8FFI9); chain EARSIAWSVDEFFKNREGTFVIQEVKEKSPWVYNKKRAKERFAPQSTFKVANALIGLQTGAVRDEYDIKYWDGVKREIDNWNRDHTLGSGMRDSVVWYYQAMARDIGEERMNHWVKAIHYGNKDISGGIDQFWLSSTLRISPIEQVRFLKQLYEETLPFDLKNMRTVKRMMVQEEEKHATLYGKTGSGSDIGWYVGFIKHEHKTYILATNIKGTGIEAKDITYRILKKYHLMEASV
B2: UGT1A9 (Homo sapiens, UniProt O60656); chain GKLLVVPMDGSHWFTMRSVVEKLILRGHEVVVVMPEVSWQLGRSLNCTVKTYSTSYTLEDLDREFKAFAHAQWKAQVRSIYSLLMGSYNDIFDLFFSNCRSLFKDKKLVEYLKESSFDAVFLDPFDNCGLIVAKYFSLPSVVFARGILCHYLEEGAQCPAPLSYVPRILLGFSDAMTFKERVRNHIMHLEEHLLCHRFFKNALEIASEILQTPVTEYDLYSHTSIWLLRTDFVLDYPKPVMPNMIFIGGINCHQGKPLPMEFEAYINASGEHGIVVFSLGSMVSEIPEKKAMAIADALGKIPQTVLWRYTGTRPSNLANNTILVKWLPQNDLLGHPMTRAFITHAGSHGVYESICNGVPMVMMPLFGDQMDNAKRMETKGAGVTLNVLEMTSEDLENALKAVINDKSYKENIMRLSSLHKDRPVEPLDLAVFWVEFVMRHKGAPHLRPAAHDLTWYQYHSLDVIGFLLAVVLTVAFITFKCCAYGYRKCLGKKGRVKKAHKSKTH
Chain of UniProt P19466 (whole entry, unmodified, looked up): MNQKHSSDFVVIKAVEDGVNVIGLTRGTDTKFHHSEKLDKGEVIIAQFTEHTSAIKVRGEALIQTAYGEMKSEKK
Chain of UniProt Q02821 (whole entry, looked up): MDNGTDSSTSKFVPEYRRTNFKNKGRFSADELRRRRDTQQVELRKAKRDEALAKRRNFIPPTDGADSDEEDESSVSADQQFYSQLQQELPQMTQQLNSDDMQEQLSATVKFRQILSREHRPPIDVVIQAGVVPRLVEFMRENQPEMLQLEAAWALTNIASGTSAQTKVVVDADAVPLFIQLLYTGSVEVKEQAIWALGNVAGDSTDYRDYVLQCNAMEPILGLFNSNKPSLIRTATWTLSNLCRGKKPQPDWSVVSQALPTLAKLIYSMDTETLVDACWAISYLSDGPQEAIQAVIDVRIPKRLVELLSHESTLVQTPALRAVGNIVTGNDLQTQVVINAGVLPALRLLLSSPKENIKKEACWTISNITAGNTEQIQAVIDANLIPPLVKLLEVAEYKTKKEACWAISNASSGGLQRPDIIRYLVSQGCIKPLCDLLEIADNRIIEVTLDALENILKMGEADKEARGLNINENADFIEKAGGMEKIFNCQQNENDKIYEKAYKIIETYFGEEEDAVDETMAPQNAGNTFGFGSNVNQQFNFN
Chain of UniProt Q9M274 (whole entry, looked up): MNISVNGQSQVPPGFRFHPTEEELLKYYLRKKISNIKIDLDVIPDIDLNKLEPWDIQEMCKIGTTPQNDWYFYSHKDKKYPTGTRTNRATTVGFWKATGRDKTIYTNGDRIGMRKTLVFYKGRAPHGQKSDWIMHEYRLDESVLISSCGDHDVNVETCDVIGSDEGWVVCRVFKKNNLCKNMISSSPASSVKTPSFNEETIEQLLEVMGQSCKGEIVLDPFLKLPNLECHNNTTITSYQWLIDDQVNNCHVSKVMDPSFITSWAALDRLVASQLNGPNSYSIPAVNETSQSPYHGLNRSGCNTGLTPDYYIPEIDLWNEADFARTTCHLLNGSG
Chain of UniProt F4JVI3 (whole entry, looked up): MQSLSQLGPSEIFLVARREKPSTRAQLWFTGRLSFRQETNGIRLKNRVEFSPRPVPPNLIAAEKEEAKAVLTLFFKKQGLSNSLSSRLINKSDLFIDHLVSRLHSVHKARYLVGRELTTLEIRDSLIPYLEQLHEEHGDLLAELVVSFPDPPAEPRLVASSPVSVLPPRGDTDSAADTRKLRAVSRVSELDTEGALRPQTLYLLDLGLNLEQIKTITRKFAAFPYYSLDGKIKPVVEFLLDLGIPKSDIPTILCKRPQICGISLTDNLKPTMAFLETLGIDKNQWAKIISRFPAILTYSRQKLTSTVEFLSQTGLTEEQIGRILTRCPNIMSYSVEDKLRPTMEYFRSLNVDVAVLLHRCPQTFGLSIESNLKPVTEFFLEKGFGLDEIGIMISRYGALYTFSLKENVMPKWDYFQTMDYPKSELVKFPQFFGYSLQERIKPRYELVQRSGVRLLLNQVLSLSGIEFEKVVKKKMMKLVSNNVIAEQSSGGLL
Chain of UniProt Q03281 (whole entry, looked up): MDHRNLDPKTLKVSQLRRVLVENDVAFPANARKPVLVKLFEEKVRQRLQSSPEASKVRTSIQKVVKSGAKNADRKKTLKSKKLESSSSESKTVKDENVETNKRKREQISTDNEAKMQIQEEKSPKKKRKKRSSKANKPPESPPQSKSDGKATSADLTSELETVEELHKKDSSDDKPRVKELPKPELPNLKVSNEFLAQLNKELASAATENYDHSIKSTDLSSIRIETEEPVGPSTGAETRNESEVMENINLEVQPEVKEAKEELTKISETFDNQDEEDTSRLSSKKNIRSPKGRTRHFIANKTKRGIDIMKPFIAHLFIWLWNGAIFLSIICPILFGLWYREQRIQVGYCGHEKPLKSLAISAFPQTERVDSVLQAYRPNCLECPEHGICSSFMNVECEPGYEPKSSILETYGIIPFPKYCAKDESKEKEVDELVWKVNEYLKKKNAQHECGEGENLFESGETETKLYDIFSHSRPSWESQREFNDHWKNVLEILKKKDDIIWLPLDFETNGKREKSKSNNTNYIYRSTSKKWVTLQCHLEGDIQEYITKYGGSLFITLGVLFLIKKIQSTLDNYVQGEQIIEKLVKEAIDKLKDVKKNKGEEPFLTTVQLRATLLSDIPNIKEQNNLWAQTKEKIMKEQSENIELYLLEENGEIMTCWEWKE
Chain of UniProt P35222 (whole entry, looked up): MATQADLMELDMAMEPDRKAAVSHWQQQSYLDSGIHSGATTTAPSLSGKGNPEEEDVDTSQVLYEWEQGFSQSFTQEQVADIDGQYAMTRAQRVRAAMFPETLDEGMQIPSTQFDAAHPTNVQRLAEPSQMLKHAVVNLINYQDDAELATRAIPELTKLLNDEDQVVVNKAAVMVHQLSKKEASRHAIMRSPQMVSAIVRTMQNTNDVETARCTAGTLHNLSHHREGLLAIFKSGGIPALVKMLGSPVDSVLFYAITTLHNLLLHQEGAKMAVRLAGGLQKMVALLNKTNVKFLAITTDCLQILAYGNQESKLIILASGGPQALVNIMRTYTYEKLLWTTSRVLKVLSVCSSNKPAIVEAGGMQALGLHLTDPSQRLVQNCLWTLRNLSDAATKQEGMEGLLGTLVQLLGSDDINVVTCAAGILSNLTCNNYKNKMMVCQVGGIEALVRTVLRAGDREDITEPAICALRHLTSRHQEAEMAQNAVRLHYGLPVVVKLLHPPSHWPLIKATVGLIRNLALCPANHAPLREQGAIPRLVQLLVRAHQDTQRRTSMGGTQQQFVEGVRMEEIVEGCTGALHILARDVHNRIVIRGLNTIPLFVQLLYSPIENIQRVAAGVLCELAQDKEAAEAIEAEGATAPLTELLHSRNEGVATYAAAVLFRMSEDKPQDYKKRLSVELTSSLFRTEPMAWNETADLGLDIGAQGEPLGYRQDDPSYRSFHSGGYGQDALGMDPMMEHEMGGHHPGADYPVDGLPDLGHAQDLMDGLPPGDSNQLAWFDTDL
Chain of UniProt P25799 (whole entry, looked up): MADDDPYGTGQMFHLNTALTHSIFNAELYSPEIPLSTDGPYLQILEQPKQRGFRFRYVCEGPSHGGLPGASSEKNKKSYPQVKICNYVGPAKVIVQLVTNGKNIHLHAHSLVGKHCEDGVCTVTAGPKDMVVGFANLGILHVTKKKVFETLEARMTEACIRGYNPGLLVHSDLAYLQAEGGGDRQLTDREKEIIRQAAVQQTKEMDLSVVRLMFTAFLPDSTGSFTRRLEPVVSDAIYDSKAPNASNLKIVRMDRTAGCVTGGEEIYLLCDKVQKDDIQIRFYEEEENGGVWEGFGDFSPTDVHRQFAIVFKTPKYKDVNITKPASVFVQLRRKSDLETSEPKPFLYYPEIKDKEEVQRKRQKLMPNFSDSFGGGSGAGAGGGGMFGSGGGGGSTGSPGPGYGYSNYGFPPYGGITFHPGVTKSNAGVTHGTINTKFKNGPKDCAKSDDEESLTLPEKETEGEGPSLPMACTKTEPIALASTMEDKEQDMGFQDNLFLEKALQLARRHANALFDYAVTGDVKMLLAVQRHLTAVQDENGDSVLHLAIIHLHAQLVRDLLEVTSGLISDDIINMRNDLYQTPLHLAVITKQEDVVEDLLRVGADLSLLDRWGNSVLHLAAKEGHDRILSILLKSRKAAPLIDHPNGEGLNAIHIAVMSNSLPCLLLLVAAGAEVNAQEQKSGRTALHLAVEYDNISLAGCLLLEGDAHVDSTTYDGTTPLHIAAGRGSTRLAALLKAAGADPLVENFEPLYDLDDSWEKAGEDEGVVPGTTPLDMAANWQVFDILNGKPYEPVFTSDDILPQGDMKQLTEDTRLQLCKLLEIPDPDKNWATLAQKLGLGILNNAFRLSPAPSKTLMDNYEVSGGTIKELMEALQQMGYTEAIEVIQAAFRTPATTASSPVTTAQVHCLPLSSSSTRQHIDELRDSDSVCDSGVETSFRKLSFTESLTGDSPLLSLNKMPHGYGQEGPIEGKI
Chain of UniProt P75989 (whole entry, looked up): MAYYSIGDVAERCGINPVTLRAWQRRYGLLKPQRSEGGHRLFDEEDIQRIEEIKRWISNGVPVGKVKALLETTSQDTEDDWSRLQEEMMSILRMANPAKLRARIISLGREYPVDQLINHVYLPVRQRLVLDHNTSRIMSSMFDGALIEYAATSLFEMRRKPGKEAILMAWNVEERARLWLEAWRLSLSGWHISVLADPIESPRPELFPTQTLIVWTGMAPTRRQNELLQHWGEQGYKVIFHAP

Molecule | target or system | assay | system | conditions | scale | quantity | result
GTGTCATAAGAAAGCTTCAAGAGACAGCAACAAGATTTGGTGGAAGAAGGAGACAGCTCAGTGTAGTTAGTGTTTTTATATAATTTAATTGCTTGAGCTTCCAACTTCTACTGTTTGTTATTCTTTTGAGTTCTTTAGAATTTGTATAACTTAGAGTAGCTTTCAAGTTATTATGTATTTCTACTTTAGTCTTACTTAATATTTTGTATCTTATAAACTTTACCAAATCTGG (dsDNA (Arabidopsis thaliana)) | NAC066 full length assumed (Arabidopsis thaliana, UniProt Q9M274) | EMSA | double-stranded DNA, one strand shown | added: NST2 | – | binding | binds
ATGCATTAGCACTAATTGCAAAAAATTAATTTATCATTCTGTACACATATTTCGTACAAGTTTGCTATTGTTACTTCACTTAACATTGATTAACATTTTTAACAGAGGCGTAGCATGCATCAAAATTCAGTGACTTTAGATTCTGCGGGAGCAATCAC (dsDNA) | bluR 1-243 (Escherichia coli, UniProt P75989) | EMSA | double-stranded DNA, one strand shown | MgCl2 1 mM | – | binding | binds
GGGAGAGAAGGACAAGCGUUUCAGCGGAUCCAUCAGGUAGCUACGACCUGUGAAAACAGGGAGUUGGGACUUUCAAAGCCUAAUUAUUGCCGCUUUGAAAUAAUGAUACGAGCUGGUAUAAUGUAACCAAUCGUGUCAUUUGGAUUUAUUUCUAUUGUUCUAUUUUCCAGACUGAAGCACAUUCCACGCCCAAACAUGAAGG (ssRNA) | rpl-10a | UV crosslinking | – | – | – | binding | binds weakly
GGTGCGCATAATGTATATTATGTTAAAT (dsDNA (Escherichia coli)) | XerC/XerD (Escherichia coli) | EMSA | double-stranded DNA, one strand shown | cooperative | – | K1/2 | < 1 nM
CCTACTTAAGTAGGGAAGGTGCACAATGTACATCTTCTTTTAATTTCCCGGTATGAGATTTTATATTCACAGTATGAATATTTTATGTAATAAAATTCATGGTAATTATTATAACTAAAAGTTTCTTTAATAATAAAACGAATAACTTGCAGATTTGAAATGCAT (dsDNA (Escherichia coli); blunt) | leuO | DNase I footprinting | double-stranded DNA, one strand shown | – | – | binding | binds
GAGUUGAGUUGAGUUGAGUUGAGUUGAGUUGAGUUGAGUUGAGUUGAGUUGAGUU (ssRNA; single strand) | mtrB full length assumed T30V/D39A (Bacillus subtilis, UniProt P19466) | filter binding | – | added: no tryptophan | – | Kd | 7 ± 1 nM
GGGAGAACCCACAGAAGGACAAGCGUUUCAGCGGAUCCAUCAGGUAGCUACGACCUGUGAAAACAGGGAGUUGGGACUUUCAAAGC (ssRNA) | rpl-10a | UV crosslinking | – | – | – | binding | binds weakly
GTAGACTCTAAAAATACCCTTGGTACTTTATTGACGATCTCACAAAGATGCAATCTCAGTGAATTTTAATTTACTTATTCATCTTTTACAGAATCGATT (dsDNA) | MTERF5 44-493 (Arabidopsis thaliana, UniProt F4JVI3) | DNase I footprinting | double-stranded DNA, one strand shown | – | – | binding | binds
DNA 1 GGACGGCATTGGATCGAGGTTGAGTTGGTTGGACGGCTGCGAGGA / DNA 2 TCCTCGCAGCCGTCCAACCAACTCA / DNA 3 CCTCGATCCAATGCCGTCC (dsDNA; 1-nt gap, three strands, blunt) | POLG/POLG2 26-1239; 26-485 (Homo sapiens) | SAXS | double-stranded DNA | – | – | binding | binds
B1 (enzyme) | O=C(Cc1cccs1)N[C@@H]1C(=O)N2C(C(=O)O)=C(/C=C/c3ccc([N+](=O)[O-])cc3[N+](=O)[O-])CS[C@H]12 | steady-state kinetics | – | pH 7 | – | kcat/Km | 1e+07 ± 1e+06 M⁻¹ s⁻¹
SRP1 (Saccharomyces cerevisiae, UniProt Q02821) | HEH2 100-137 (Saccharomyces cerevisiae, UniProt Q03281) | wide-field microscopy | yeast | – | higher = more cells enriched | co-enrichment at peripheral ER | 45%
TGCTGCCTTGCGGTATGGCCATCATGGTTTCCTGCCGAAACTGGACCTTATGACAGGATATACCCACAATATGACATTATCATGAAACTAAAATGACAATTTTATGACAAAAGCCCAGCGACATATGTACCGCAATACACAGGATTTGCGGAGACCGCAGTGGTCTCCGCTACTCCAACCAGGCATGGAAGATCAGTGAATTACTGAAGTG (dsDNA) | fur full length assumed | EMSA | double-stranded DNA, one strand shown | supershift, added: Mn2+ 0.1 mM | – | binding | binds
DNA 1 CGAGGTATGGCACTGGCCGTCGTTTTCG / DNA 2 CGAAAACGACGGCCAGTGCCATAC (dsDNA; 4-nt 5' overhang, recessed primer) | POLG/POLG2 26-1239; 26-485 del43-52 (Homo sapiens) | cryo-EM | double-stranded DNA | added: dCTP | – | binding | binds
GGACGGCATTGGATCGAGGTTGAGTTGGTTGGACGGCTGCGAGGA (dsDNA) | POLG/POLG2 26-1239; 26-485 (Homo sapiens) | DLS | double-stranded DNA, one strand shown | – | – | binding | binds
GATCCAGAGGGGACTTTCCGAGAG (dsDNA) | Nfkb1 1-431 (Mus musculus, UniProt P25799) | competition | double-stranded DNA, one strand shown, crude extract | not purified | baseline: B2 oligo equal competitor, lower = stronger competition | relative binding | 1 fold
TTATTGGGCAGACTGTTGCCGACGTTGTTAAATCCGGGCAGATCCGCCCCGCAGGTGGGACAGGTCCGGCTCTTGGTACTCAATTCTTCTCTGCTGTTCATGGGAATATCCCCTATCTGATGGATGCTAGTGATTCTCTTTTACATCAGCTAGGACCATACCGCATTGAGAATTGTTAATTTGTCTATAGAAATTTTTACCTTTGCTTTCCTCCAATGGAGTCCTGCCTCTCAGTGATCAA (dsDNA) | fur full length assumed | EMSA | double-stranded DNA, one strand shown | supershift, competed by cold probe, added: Mn2+ 0.1 mM | – | binding | binds
GCGGACGGACAGAGAGUGCAACCUGCCGUGCCGC (ssRNA; 2'-F pyrimidines, 5' thiol-C6) | ITGA5/ITGB1 on cells (Mus musculus) | flow cytometry | MB49-Luc | apparent, no added Mg2+/Ca2+, not purified | – | Kd | 245 ± 58.1 nM
GGGAUGACCUCAUAAAAUACCUCUUCAAAAUGCUUAAAUUCAUUUCACACAUUAAUUUUAUCUCAGUCUUGAAGCCAAUUCAGUAGGUGCAUUGGAAUCAAGCCUGGCUACCUGCAUGCUGUUCCUUUUCUUUUCUUCUUUUAGCCAUUUUGCUAAGAGACUCUAGAUC (ssRNA) | CTNNB1 full length assumed (Homo sapiens, UniProt P35222) | EMSA | – | – | – | binding | no binding
TTGAAATGCATGCATTATTGTCTTTAAACAATTCAACACATCTTAATATATGTATAGGTTAATTGTATTAAACCAATGAATATATTTTTGCAGTGAATGTGATTATTGAATTAATTACGCCGTATTTTTTCTTTGTTTTTACCGATAACGGAAGTGTGCCGACGTA (dsDNA (Escherichia coli); blunt) | leuO | DNase I footprinting | double-stranded DNA, one strand shown | – | – | binding | binds
B2 (UGT1A9) | O=c1cc(-c2ccc(O)c(O)c2)oc2cc(O)cc(O)c12 | steady-state kinetics | – | pH 7.4, 37 °C | – | Vmax/Km | 3870 µL/min/mg and 2100 µL/min/mg
ACGCAAGCGGTAACAAAGCGTACAAGATGTTCAGTCTCTTACAGGACGAAAAGATATAACCACATGATGATATTATAGTTATTCTTTGGCACCGTTATTGCTTGATGTGTCGTTGTTGCCGT (dsDNA) | fur full length assumed | EMSA | double-stranded DNA, one strand shown | supershift, added: Mn2+ 0.1 mM | – | binding | binds
GATCGATCGACACACACACACACACAGATCGATCGA (dsDNA; N6-methyl-dA at 12,14,16,18,20,22,24,26; blunt) | Pc fragment (Drosophila melanogaster) | fluorescence polarization | double-stranded DNA, one strand shown | – | – | binding | binds

For quick reference, copied from above:
Molecule | target or system | assay | system | conditions | scale | quantity | result
GCGGACGGACAGAGAGUGCAACCUGCCGUGCCGC (ssRNA; 2'-F pyrimidines, 5' thiol-C6) | ITGA5/ITGB1 on cells (Mus musculus) | flow cytometry | MB49-Luc | apparent, no added Mg2+/Ca2+, not purified | – | Kd | 245 ± 58.1 nM
CCTACTTAAGTAGGGAAGGTGCACAATGTACATCTTCTTTTAATTTCCCGGTATGAGATTTTATATTCACAGTATGAATATTTTATGTAATAAAATTCATGGTAATTATTATAACTAAAAGTTTCTTTAATAATAAAACGAATAACTTGCAGATTTGAAATGCAT (dsDNA (Escherichia coli); blunt) | leuO | DNase I footprinting | double-stranded DNA, one strand shown | – | – | binding | binds
